Results from different studies.
Each numbered part is a random draw from the data of one study; scales do not carry over between parts. “And” joins repeats or separate records; there may be more than shown. Changes are numbered by the printed parent chain.

Block 1
Target: UBE2W UBC core domain (UniProt Q96B02)
Technique: yeast two-hybrid
Medium: yeast
Setting: mostly zero background
Relative to: not given
Reading: higher = stronger interaction
B1: TRIM34 RING domain (UniProt Q9BYJ4); chain ILLNVQEEVTCPICLELLTEPLSLDCGHSLCRACITVSNKEAVTSMGGKSSCPVCGISYSFEHLQA
B2: RNF11 RING domain (UniProt Q9Y3C5); chain RDGSEKKIRECVICMMDFVYGDPIRFLPCMHIYHLDCIDDWLMRSFTCPSCMEPVDAALLSS
B3: TRIM2 RING domain (UniProt Q9C040); chain VRQIDKQFLICSICLERYKNPKVLPCLHTFCERCLQNYIPAHSLTLSCPVCRQTSILPEKGV
B4: RFPL3 RING domain (UniProt O75679); chain MAALFQEASSCPVCSDYLEKPMSLECGCTVCLKCINSLQKEPHGEDLLCCCCSMVSQRNKIRP
B5: TRIM74 RING domain (UniProt Q86UV6); chain SLLELEDWLQCPICLEVFKESLMLQCGHSYCKGCLVSLSYHLDTKVRCPMCWQVVDGSSSLP
B6: RNF17 RING domain (UniProt Q9BXT8); chain SQPWGAAEIQCTRCGRRVSRSSGHHCELQCGHAFCELCLLMTEECTTIICPDCEVATAVNTRQR
Target sequence (chain): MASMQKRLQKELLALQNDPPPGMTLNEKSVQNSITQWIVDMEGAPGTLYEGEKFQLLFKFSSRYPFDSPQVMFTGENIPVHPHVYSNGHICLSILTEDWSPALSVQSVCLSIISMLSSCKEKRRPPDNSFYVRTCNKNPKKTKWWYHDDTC
Sequence	lacZ reporter activity
B1 (TRIM34 RING domain)	0
EDVLSKDAGECAICLEELQQGDTIARLPCLCIYHKGCIDEWFEVNRSCPEHPSD (ZNRF2 RING domain (UniProt Q8NHG8))	0
B2 (RNF11 RING domain)	0
B3 (TRIM2 RING domain)	0
B4 (RFPL3 RING domain)	0
B5 (TRIM74 RING domain)	0
B6 (RNF17 RING domain)	0
MEEMEEELKCPVCGSFYREPIILPCSHNLCQACARNILVQTPESESPQSHRAAGSGVSDY (TRIM9 RING domain (UniProt Q9C026))	0

Block 2
Target: HLA class I histocompatibility antigen, A alpha chain, allele A*25:01 (Homo sapiens, UniProt P04439)
Observed: peptide-MHC binding
Form: peptide
Tested at: concentration not given
Sequence	binding
ETFNTPAMY	active
RGYVWTNGY	inactive
RTWFYRTEF	inactive
YQIEGAWRA	inactive
FLYDRLAST	inactive
QFLSFASLF	inactive
QTDNDIWFW	inactive
WTDLFDNKV	inactive

Block 3
Target: CCNA1, cyclin fold, Cln2 fusion (human)
Technique: yeast growth competition, sequencing
Medium: yeast
Setting: strong parent motif
Relative to: not given
Reading: higher = stronger binding
Parent: viral docking peptide; YKVKRRLVFGADD; partner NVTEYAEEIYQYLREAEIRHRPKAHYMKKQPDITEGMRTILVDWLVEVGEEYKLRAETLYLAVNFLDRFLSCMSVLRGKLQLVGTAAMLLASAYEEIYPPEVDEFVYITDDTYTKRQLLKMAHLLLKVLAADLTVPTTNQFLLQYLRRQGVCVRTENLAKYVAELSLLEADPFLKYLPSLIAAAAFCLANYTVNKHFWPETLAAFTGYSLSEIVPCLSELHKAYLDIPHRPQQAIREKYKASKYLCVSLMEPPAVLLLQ
Variant	normalised enrichment score
V3T	1.11
F9E	0.132
A11S	1.59
G10Y	1.11
F9W	1.05
V8S	1.77
G10V	1.09
L7E	0.0904

Other studies, line by line
SMILES	cell line	technique	tested at	with	endpoint	value
CC(C)S(=O)(=O)c1ccc2nccc(Nc3ccc4sc(C5CCCC5)nc4c3)c2c1.Cl	L929 RIPK3-/- reexpressing RIPK3 K51A	CCK-8	1.563 µM	zVAD	survival	97.6% and 98.7% and 96.5% and 98.3%

A few entries again (block 3):
Variant	normalised enrichment score
V3T	1.11
F9E	0.132
A11S	1.59
